Assay results gathered from unrelated publications.
Protocols differ between the studies behind these lines. Several values in a cell are separate wells, animals, samples, runs or records. ± marks the error that the study gave.
UniProt Q9HCG7, sequence (whole entry, looked up): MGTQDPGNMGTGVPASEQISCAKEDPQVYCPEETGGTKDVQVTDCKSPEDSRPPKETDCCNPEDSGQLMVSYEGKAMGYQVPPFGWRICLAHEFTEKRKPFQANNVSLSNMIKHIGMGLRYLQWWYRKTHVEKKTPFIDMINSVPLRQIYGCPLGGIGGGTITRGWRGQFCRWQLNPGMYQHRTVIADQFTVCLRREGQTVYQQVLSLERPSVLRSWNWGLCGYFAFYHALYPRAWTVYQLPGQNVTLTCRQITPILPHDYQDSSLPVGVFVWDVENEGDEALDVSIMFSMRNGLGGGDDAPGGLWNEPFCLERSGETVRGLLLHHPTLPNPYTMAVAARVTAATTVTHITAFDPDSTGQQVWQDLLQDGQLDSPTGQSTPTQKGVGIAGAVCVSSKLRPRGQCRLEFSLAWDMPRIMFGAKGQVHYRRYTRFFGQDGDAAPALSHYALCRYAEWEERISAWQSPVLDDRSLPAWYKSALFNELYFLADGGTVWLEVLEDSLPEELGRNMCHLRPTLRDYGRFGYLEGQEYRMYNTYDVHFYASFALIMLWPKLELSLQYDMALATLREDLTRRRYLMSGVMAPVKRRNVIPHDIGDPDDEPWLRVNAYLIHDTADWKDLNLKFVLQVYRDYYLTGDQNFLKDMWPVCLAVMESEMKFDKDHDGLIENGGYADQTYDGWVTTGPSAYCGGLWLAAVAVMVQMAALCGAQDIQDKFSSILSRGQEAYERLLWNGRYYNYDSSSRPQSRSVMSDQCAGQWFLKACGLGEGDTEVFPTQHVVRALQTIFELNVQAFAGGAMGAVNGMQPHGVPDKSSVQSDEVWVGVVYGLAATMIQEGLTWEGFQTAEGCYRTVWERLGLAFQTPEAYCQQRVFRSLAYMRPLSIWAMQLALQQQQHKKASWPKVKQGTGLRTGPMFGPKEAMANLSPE

Compound | tested on | test | system | setting | how to read | measurement | value
O=C(Nc1nnc2c1c(-c1ccc(Cl)cc1)nc1sc(=Cc3ccco3)c(=O)n12)c1ccccc1 (mixture of isomers) | SN12C | SRB | – | 10 µM, NCI60 single-dose screen | reference: untreated | cell growth | 41.1%
OC[C@H]1[C@@H](O)[C@H](O)[C@@H](O)CN1CCCCCOCc1ccccc1-c1ccccc1 | Beta-glucosidase (GBA2, Homo sapiens, UniProt Q9HCG7) | inhibitor, 4MU-β-D-glucopyranoside | HEK293T homogenates overexpressing GBA2 | – | reference: GBA1 IC50 over GBA2 IC50 | selectivity ratio | 5000
CCCC(CCC)C(=O)OCc1cn(-c2cc3ccccc3oc2=O)nn1 | LOX IMVI | NCI60 single dose | – | 10 µM | – | growth | 94.7%
CCOc1cncc(-c2ccc(NC(=O)C3(c4ccnc(NS(=O)(=O)C5CC5)n4)CCOCC3)nc2)n1 | Raji | cell growth or viability, ATP luminescence | – | 72 h | – | IC50 | 0.085 µM
COC(=O)c1cc(NC2=NC(=O)C(=Cc3ccc(N(C)C)cc3)S2)ccc1OC(C)=O | MCF7 | GC-MS, refers to: Cholesterol | – | 1 µM | reference: DMSO | metabolite level | 0.67 fold change
C=C(NC(=O)c1csc(-c2nc3c(cc2O)-c2nc(cs2)C(=O)NC(C(C)O)C(=O)NC(=C(C)OC)c2nc(cs2)C(=O)NC2c4nc(cs4)C(=O)NC(COC(=O)c4c5c6c(cccc6n4O)COC(=O)C(OC4CC(C)(O)C(N(C)C)C(C)O4)C2OC5)c2nc-3cs2)n1)C(N)=O (stereo not drawn) | – | – | Sprague-Dawley rat, female, plasma | intravenous infusion, 6 mg/kg, multiple doses, day 7 | – | half-life | 7.05 h
O=C(N1CCCC1)n1cc(-c2ccc(-c3ccccc3)cc2)nn1 | mouse T cells | N-terminal labelling proteomics, refers to: Paip2b N-terminal peptide | – | 0.001 µM, 6 h | reference: DMSO | SILAC ratio per peptide | 0.95 and 0.97
NC(Cc1ccccc1)C(=O)N1CC(=Cc2ccc(Cl)c(Cl)c2)C(=O)C(=Cc2ccc(Cl)c(Cl)c2)C1 (stereo not drawn) | BRD4-HiBiT cells | BRD4 degradation rescue, inhibitor | – | 2 h, 50% degradation rescued, added: dBET6 500 nM | – | EC50 | 1.14 µM
O=C(C[Se]C(=O)c1cccnc1Nc1cccc(C(F)(F)F)c1)Nc1cccc(C(F)(F)F)c1 | NCI60 colon subpanel | NCI60 five-dose screen | – | – | – | GI50 | 2.5 µM
COC1CN([C@H]2CC[C@H]([C@@]3(C)Oc4c(Cl)cc(C(=O)NCc5c(SC)cc(C)[nH]c5=O)c(C)c4O3)CC2)C1 | – | RNA-seq, refers to: UPP1 mouse homolog | mouse, HT-1376 xenograft, whole blood | dose not given | reference: vehicle | log2 fold change | 0.766
CCNc1cc2c(cc1C)C1(c3cc(C)c(NCC)cc3O2)c2ccccc2C(=O)N1N=Cc1c[c-]c(-c2ccccn2)cc1.Cc1c(C)c(-c2ccc(-c3ccccc3)cc2)[c-](C)c1C.[Cl-].[Ir+3] | A549 | PI flow cytometry | – | 2 x IC50, 24 h | – | G2/M phase cells | 11.2 ± 1.3%
Cc1nn(-c2cccc(N)c2)c(=O)c2cnc(Nc3ccc(N4CCNCC4)cc3)nc12 | TSSK2 (Homo sapiens, UniProt Q96PF2) | enzyme activity, inhibitor | – | – | – | IC50 | > 10 µM
Cn1ncc2cc(-c3cncc(Cl)c3N3CCC4(CCNC4=O)CC3)ccc21 | LS174T | gene expression, microarray, refers to: INHBB mRNA | – | concentration not given, 4 h | reference: untreated cells | log2 fold change | 1.67
O=CCNCCOn1c(=O)n(OCCNCCO)c(=O)n(OCCNCCOn2c(=O)n(OCCNCCO)c(=O)n(OCCNCCO)c2=O)c1=O | A549 | cell growth or viability, MTT | – | 50 µg/mL, 24 h | – | viability | 40.8%
C=CC(=O)N1[C@H](c2ccc3c(c2)OCO3)c2[nH]c3ccccc3c2C[C@@H]1C(=O)NC | rat DRG neurons | – | – | 0.01372 µM, 48 h, added: vincristine 40 nM | – | mean neuron degeneration | 76.8%
C=CC(=O)N1CCCC(n2c(=O)c3ncccc3n(Cc3ccc(Oc4ccccc4)cc3)c2=O)C1 (stereo not drawn) | Rec1 | refers to: LBH | – | concentration not given | reference: untreated | log2 fold change | 0.345
CNS(=O)(=O)Nc1nccc(Cc2c(C)c3ccc(Oc4ncccc4F)cc3oc2=O)c1F | HSC-3 | cell viability | – | 7 days | – | IC50 | > 1 µM
O=C(NCc1cc(F)cc(F)c1)[C@@]1(O)CCN(c2ccc3[nH]ccc3c2)C1=O | Ovarian PDX-derived tumour cells | colony formation, soft agar clonogenic | – | concentration not given, 8-10 days | – | maximal inhibition | 86%
CCN(CC)CC#CCNc1ccnc2cc(Cl)ccc12 | Salmonella typhimurium | mini-Ames test | TA97a | 125.0 µg/well, with rat liver S9 | – | revertants per well | 14
COc1ccccc1-c1ccncc1C(=O)Nc1nnc(OCc2ccc(Cl)cc2)s1 | Brca1 Δ11/Δ11 MEFs with sgGFP | – | – | 1.25 µM, 500 cells/well | – | colony survival | 105% and 82.5% and 72.1%
C#CCCCC(F)/C=C/C(=O)NC1(c2ccc(-c3nc4ccn5c(=O)[nH]nc5c4cc3-c3ccccc3)cc2)CCC1 (stereo not drawn) | MDA-MB-468 | flow cytometry, PI staining | – | EC60 concentration, 72 h, DMSO 22.2 | – | cells in S phase | 23%
N#Cc1cccc(/C=C/C(=O)c2ccc(O)cc2)c1 | U-87 MG | refers to: SORBS1 | – | concentration not given | reference: untreated | fold change | 41.5
Cc1ncsc1-c1ccc(C(C)NC(=O)C2CC(O)CN2C(=O)C(NC(=O)CCCCCCCCCCN2CCCC(Nc3ncc(Cl)c(Nc4ccccc4S(=O)(=O)C(C)C)n3)C2)C(C)(C)C)cc1 (stereo not drawn) | 22Rv1 | RNA-seq, refers to: TTC23 mRNA | – | concentration not given | reference: DMSO | log2 fold change | -1
Cn1ncc(-c2ccc3c(=O)[nH]nc(CN)c3c2)c1-c1c(F)c(Cl)cc(OC2CC2)c1C#N | UMUC3 | cell viability, inhibitor, CellTiter-Glo | – | 120 h, baseline-subtracted | – | IC50 | 0.16 µM

Compound | tested on | test | system | setting | how to read | measurement | value
C=CC(=O)Nc1cccc(Cn2ncc3cnc(Nc4cnn(CCOC)c4)nc32)c1 | PRKCE human | binding, KINOMEscan | – | 100 nM | lower = stronger binding | percent of control | 100%
CO[C@@H]1[C@@H](OC(N)=O)[C@@H](O)[C@H](Oc2ccc3c(O)c(NC(=O)c4ccc(O)c(CC=C(C)C)c4)c(=O)oc3c2C)OC1(C)C | HCT-116 parental | – | – | 50 µM, replicate 2 | – | colony count | 19.5
Nc1ncc(-c2cc(-c3cnn(CC(F)(F)F)c3)ncc2F)nc1C(=O)NC1CNCC(F)C1 (stereo not drawn) | SIK2 | KINOMEscan | – | 1 µM | reference: DMSO control | remaining binding | 68%
CCC(=CCc1c(O)cc2c(c1O)C(=O)CC(c1ccc(O)cc1)O2)CC (stereo not drawn) | HeLa | cell growth or viability, MTT | – | 0.781 µM, 48 h | – | inhibition | 2.08%
CC(C)c1ccc(N(C)c2ccc3c(c2)OCC[C@H]3CNc2cnccc2C(=O)O)cc1 | HSC-3 | cell viability | – | 7 days | – | IC50 | 0.0603 µM
CCN(C(=O)c1cc(F)ccc1Oc1nncnc1N1CCC2(C1)CN([C@H](CCCN(C)CCOC)C(C)C)C2)C(C)C | UMUC3 | cell growth or viability | – | 7 days | – | GI50 | > 10 µM
CNC(=O)CCN(Cc1ccc(C(F)F)cc1)C(=O)c1cc2c(OC)ccc(-c3ccc(=O)n(C)c3)c2s1 | murine AML cells | BRD4 chromatin occupancy, ChIP-seq, refers to: Ift57 locus | – | concentration not given | reference: DMSO | log2 fold change | -3.23
O=C(C[Se]C(=O)c1cc2ccccc2o1)Nc1cccc(C(F)(F)F)c1 | NCI60 colon subpanel | cell growth | – | 10 µM, 48 h, one-dose | – | mean growth percent | -29.3%
Cc1ccc(-n2cc(CSc3nc4ccccc4n3Cc3cn(-c4ccc(C)cc4)nn3)nn2)cc1 | MDA-MB-231 | MTT | – | 7.81 ppm | – | cytotoxicity | 60.6%
CC(=O)N[C@@H](Cc1ccc(I)cc1)C(=O)N[C@@H](CCC(=O)O)C(=O)N[C@H](C(=O)N[C@@H](CC(=O)O)C(=O)COC(=O)c1c(C)cccc1C)[C@@H](C)O | THP-1 cells expressing FKBP-caspase-11 | pyroptosis, inhibitor | – | concentration not given, added: B/B dimerizer | – | LDH release | 25.1% and 26% and 35.9%
CSC(=S)N/N=C(\C)c1ccc(Nc2nnc(-c3ccc(Cl)cc3)c3ccccc23)cc1 | MCF7 | cell growth or viability, MTT | – | 0.156 µM | – | cell death | 49.2%
CC(C)OCCOCc1ccc(OCC(O)CN(N=O)C(C)C)cc1 (stereo not drawn) | Salmonella typhimurium | Ames test | TA98 | 1580 µg/plate, 30 % rat S9 | reference: solvent control | revertant fold increase | 0.9 fold
O=C(C[Se]C(=O)c1cc2ccccc2s1)Nc1cccc(C(F)(F)F)c1 | NCI60 colon subpanel | cell growth | – | 10 µM, 48 h, one-dose | – | mean growth percent | -38.8%
COc1ccc(NC(=O)c2ccc3[nH]c(-c4ccc(N(C)C)cc4)nc3c2)cn1 | HCT-116 | refers to: CXCL8-luc luciferase reporter | – | concentration not given, unit not given | reference: DMSO | reporter activity | 12.5
O=C(O)C1OC(Oc2ccc(-c3cc(=O)c4ccccc4o3)cc2)C(O)C(O)C1O (stereo not drawn) | MDCKII-UGT1A1/MRP2 cells | glucuronide efflux, substrate | – | – | – | Jmax | 13.8 ± 1.37 pmol/mg/min
CC(C)C[C@H](NC(=O)[C@H](Cc1ccc(O)cc1)NC(=O)[C@@H](CCCNC(=N)N)NC(=O)[C@@H](CO)NC(=O)[C@H](Cc1ccccc1)NC(=O)[C@H](CC1CCCCC1)NC(=O)[C@H](CC(=O)O)NC(=O)CN1CCN(CC(=O)O)CCN(CC(=O)O)CCN(CC(=O)O)CC1)C(=O)N[C@@H](Cc1c[nH]c2ccccc12)C(=O)N[C@@H](CO)C(=O)O [copper-64 labelled] | – | – | human, liver | concentration not given, 24 h | – | activity concentration | 7480 Bq/mL and 6000 Bq/mL and 5590 Bq/mL and 9290 Bq/mL and 9970 Bq/mL and 7720 Bq/mL
COc1cccc(OC)c1-c1cc(C(=O)NC2(C(=O)O)C3CC4CC(C3)CC2C4)nn1-c1ccc(C(=O)N(C)CCOCCN(C)C(=O)[C@H](CCCCNC(=O)[C@H](CC(C)C)NC(=O)C2OC2C(=O)O)NC(=O)CN2CCN(CC(=O)[O-])CCN(CC(=O)[O-])CCN(CC(=O)[O-])CC2)cc1C(C)C.[177Lu+3] (mixture of isomers) | HT-29 | – | – | concentration not given, 240 min | reference: added activity | surface-bound fraction | 3.49 ± 0.34%
CCCC[C@H](NC(=O)COCCOCCNC(=O)CN1CCN(CC(=O)O)CCN(CC(=O)O)CC1)C(=O)N[C@H]1CC(=O)NCCCC[C@@H](C(N)=O)NC(=O)[C@H](Cc2c[nH]c3ccccc23)NC(=O)[C@H](CCCNC(=N)N)NC(=O)[C@@H](Cc2ccccc2)NC(=O)[C@H](Cc2c[nH]cn2)NC1=O [technetium-99m labelled] | – | – | C57 mouse, blood | intravenous, 0.037 MBq, 0.5 h | – | tissue uptake | 3.36 ± 1.34 %ID/g
CCN(CC)CC(=O)Nc1cccc(-n2cc(-c3ccc4ccc(-c5cn(-c6cccc(NC(=O)CN(CC)CC)c6)nn5)cc4c3)nn2)c1 | RCC4 | PCR angiogenesis array, refers to: PROK2 | – | 5 x IC50, 4 h, normoxia | reference: untreated | fold regulation | 1.06
C#CCOC(=O)[C@@]1(C)C=C(C(=O)Nc2cccc(C(=O)Nc3ccc(C)c(Nc4nccc(-c5cccnc5)n4)c3)c2)C(=O)CC1 | SH-SY5Y MKK7 ACT | c-Jun Ser73 phosphorylation, western blot | – | 6 h, added: doxycycline | – | EC50 | ~0.5 µM
O=C1C2CC3CC1CC(C(=O)N1CCN(c4ccc([N+](=O)[O-])c5ncccc45)CC1)(C3)C2 | Salmonella typhimurium | Ames test | TA1535 | 0.78 µg/well, with S9 | reference: vehicle | revertant fold increase | 1.6
CN1CCCNC(=O)c2cccc(c2)C(=O)NCCCN(C)CCCNc2cccc3c2C(=O)c2cccc(c2C3=O)NCCC1 | SAS | RNA-seq, refers to: MT-ND3 mRNA | – | 1 µM, 6 h | reference: untreated cells | log2 fold change | -2.18
O=C(C[Se]C(=O)C12CC3CC(CC(C3)C1)C2)Nc1cccc(C(F)(F)F)c1 | NCI60 colon subpanel | NCI60 five-dose screen | – | – | – | GI50 | 13.5 µM
CNC(=O)C1CCCN(C(=O)C2CC3CCC2N3C(=O)[C@@H]2C[C@@H](O)CN2C(=O)NCc2cccc(Cl)c2F)C1 (mixture of isomers) | CYP2C19 (Homo sapiens, UniProt P33261) | enzyme activity, inhibitor, time-dependent inhibition | – | 0.617 µM, preincubated without NADPH | reference: negative control | remaining activity | 102%

Some of these lines once more:
Compound | tested on | test | system | setting | how to read | measurement | value
O=C(N1CCCC1)n1cc(-c2ccc(-c3ccccc3)cc2)nn1 | mouse T cells | N-terminal labelling proteomics, refers to: Paip2b N-terminal peptide | – | 0.001 µM, 6 h | reference: DMSO | SILAC ratio per peptide | 0.95 and 0.97
CCN(C(=O)c1cc(F)ccc1Oc1nncnc1N1CCC2(C1)CN([C@H](CCCN(C)CCOC)C(C)C)C2)C(C)C | UMUC3 | cell growth or viability | – | 7 days | – | GI50 | > 10 µM
Cn1ncc(-c2ccc3c(=O)[nH]nc(CN)c3c2)c1-c1c(F)c(Cl)cc(OC2CC2)c1C#N | UMUC3 | cell viability, inhibitor, CellTiter-Glo | – | 120 h, baseline-subtracted | – | IC50 | 0.16 µM
CNC(=O)C1CCCN(C(=O)C2CC3CCC2N3C(=O)[C@@H]2C[C@@H](O)CN2C(=O)NCc2cccc(Cl)c2F)C1 (mixture of isomers) | CYP2C19 (Homo sapiens, UniProt P33261) | enzyme activity, inhibitor, time-dependent inhibition | – | 0.617 µM, preincubated without NADPH | reference: negative control | remaining activity | 102%
